Published values pooled from the literature.
Each line is one published result; not all experiments were run side by side. Numbers after ± are the reported error.

CC(=O)OC[C@H]1O[C@@H](Sc2sc(C(=O)c3ccc(Br)cc3)c(N)c2-c2nc3ccccc3s2)[C@H](OC(C)=O)[C@@H](OC(C)=O)[C@@H]1OC(C)=O  growth percent (786-0 renal cancer; SRB; 10 µM, 48 h): 105%
COc1cc(CNC(=O)C[C@H](C)CCC=C(C)C)ccc1OCc1cn(-c2ccccc2F)nn1  growth percent (CAKI-1; SRB; 10 µM, 48 h): 55.1%
C=C1[C@H](O)CC(=C/C=C2\CCC[C@]3(C)[C@@H]([C@H](C)CCCCO)CC[C@@H]23)C[C@H]1O  EC50 ratio (rat osteosarcoma cells; reporter gene, luciferase, refers to: CYP24A1 (24-hydroxylase) promoter; relative to: compound over 1α,25-dihydroxyvitamin D3): 20
COc1ccc([C@@H]2CC(=O)c3c(O)cc(O[C@@H]4O[C@H](CO[C@@H]5O[C@@H](C)[C@H](O)[C@@H](O)[C@H]5O)[C@@H](O)[C@H](O)[C@H]4O)cc3O2)cc1O  cell count (A549; trypan blue exclusion; 100 µg/mL, 72 h): 17500 ± 618
O=Cc1c(O)ccc2ccccc12  log2 fold change (HUVEC; RNA sequencing, refers to: ZNF367; 75 µM, 24 h; relative to: DMSO): -3.52
Nc1cc(-c2ccncc2)c[nH]c1=O  minimum effective concentration (hiPSC cardiac tissues 3D; active force; 15 min per concentration, paced at 1 Hz serum-free): 30 µM
CC(=O)OC[C@H]1O[C@@H](Sc2sc(C(=O)c3ccc(C)cc3)c(N)c2-c2nc3ccccc3s2)[C@H](OC(C)=O)[C@@H](OC(C)=O)[C@H]1OC(C)=O  growth percent (786-0 renal cancer; SRB; 10 µM, 48 h): 89.1%
CC(C)(C)c1nc(-c2cccc(NS(=O)(=O)c3c(F)cccc3F)c2F)c(-c2ccnc(N)n2)s1.Cc1[nH]c2ccccc2c1CCNCc1ccc(/C=C/C(=O)NO)cc1  cells in G0/G1 phase (C13; flow cytometry; concentration not given, 48 h, concentration about IC50): 5.93%
COc1cc(CNC(=O)C[C@H](C)CCC=C(C)C)ccc1OCc1cn(-c2cccc(C(F)(F)F)c2)nn1  growth percent (NCI-H23; SRB; 10 µM, 48 h): 79.3%
N=C(N/N=C/c1ccc2ccc3cccc4ccc1c2c34)N/N=C/c1ccc2ccc3cccc4ccc1c2c34  selectivity ratio (PANC-1; crystal violet; 72 h; relative to: IC50 IMR-90 over IC50 PANC-1): 1.2
C=CC(=O)Nc1cc(Nc2nccc(-n3ccc4nc(OC)ccc43)n2)c(OC)cc1N(C)CCNC  EGFR phosphorylation (PC-9, Ba/F3 EGFR G719A; refers to: phospho-EGFR, phospho-AKT, phospho-ERK; concentration not given, 6 h): inhibited
COc1cc(CNC(=O)C[C@H](C)CCC=C(C)C)ccc1OCc1cn(-c2ccccc2)nn1  growth percent (NCI-H23; SRB; 10 µM, 48 h): 91.9%
CC/C=C\C/C=C\C/C=C\C/C=C\C/C=C\C/C=C\CCC(=O)Nc1ccn(C2OC(CO)C(O)C2(F)F)c(=O)n1 (stereo not shown)  TGI (CAKI-1; NCI60 screen): 11.7 µM
COc1cc(CNC(=O)C[C@H](C)CCC=C(C)C)ccc1OCc1cn(-c2ccc(Cl)cc2Cl)nn1  growth percent (SN12C; SRB; 10 µM, 48 h): 64.8%
CCC(=C(c1ccc(Cl)cc1)c1ccc(OCCN(CC)CC)cc1)c1ccc(OC)cc1  alkaline phosphatase activity (Ishikawa; estrogenic activity, agonist; 1 nM, 72 h, unit not given; relative to: DMSO): 1.18 ± 0.67
COc1cc(CNC(=O)C[C@H](C)CCC=C(C)C)ccc1OCc1cn(-c2ccc(C#N)cc2)nn1  growth percent (SK-MEL-5 melanoma cells; SRB; 10 µM, 48 h): 31.1%
O=C1c2c(O)cc(O)cc2-c2c(-c3ccc(O)cc3)oc3cc(O)cc1c23  downregulated protein count (LCC2 control shRNA; label-free MS proteomics; 10 µM): 245
O=C1OCC2=C1C(c1cccc(Br)c1)C1=C(N2)C(=O)c2ccccc2C1=O (stereo not shown)  cells in S phase (SK-LU-1 cells; PI flow cytometry; 0.32 µM, 24 h): 5.1%
COc1cc(CNC(=O)C[C@H](C)CCC=C(C)C)ccc1OCc1cn(-c2ccccc2Cl)nn1  growth percent (CAKI-1; SRB; 10 µM, 48 h): 46.3%
CC(C)C[C@H](NC(=O)[C@H](CC(C)C)NC(=O)[C@@H](N)CSSC[C@H](N)C(=O)N[C@@H](CC(C)C)C(=O)N[C@@H](CC(C)C)C(=O)N[C@@H](CCCNC(=N)N)C(=O)N[C@@H](CCCCN)C(=O)N[C@@H](CCCCN)C(=O)N[C@@H](CCCNC(=N)N)C(=O)N[C@@H](CCCNC(=N)N)C(=O)N[C@@H](CCC(N)=O)C(=O)N[C@@H](CCCNC(=N)N)C(=O)N[C@@H](CCCNC(=N)N)C(=O)N[C@@H](CCCNC(=N)N)C(=O)NCC(N)=O)C(=O)N[C@@H](CCCNC(=N)N)C(=O)N[C@@H](CCCCN)C(=O)N[C@@H](CCCCN)C(=O)N[C@@H](CCCNC(=N)N)C(=O)N[C@@H](CCCNC(=N)N)C(=O)N[C@@H](CCC(N)=O)C(=O)N[C@@H](CCCNC(=N)N)C(=O)N[C@@H](CCCNC(=N)N)C(=O)N[C@@H](CCCNC(=N)N)C(=O)NCC(N)=O  tdTomato-positive cells (sample A primary mouse astrocytes; flow cytometry; 8 µM, 1 h, analysed 24 h after, added: TAT-Cre 2 µM): ≥ 50%
COc1cc(CNC(=O)C[C@H](C)CCC=C(C)C)ccc1OCc1cn(-c2ccc(Cl)c(Cl)c2)nn1  growth percent (KM12; SRB; 10 µM, 48 h): 82.7%
CC(C)C[C@@H]1NC(=O)[C@H](C(C)C)NC(=O)[C@H](CC(N)=O)NC(=O)[C@H](CO)NC(=O)[C@H](CO)NC(=O)[C@H](CC(=O)O)NC(=O)[C@H](CC(=O)O)NC(=O)[C@H](Cc2ccccc2)NC(=O)[C@H](Cc2ccc(O)cc2)NC(=O)[C@@H](N)CSSC[C@@H](C(=O)N[C@@H](CCCCN)C(=O)N[C@@H](CCCCN)C(=O)N[C@@H](Cc2ccc(O)cc2)C(=O)N[C@@H](CCCNC(=N)N)C(=O)N[C@@H](CO)C(=O)O)NC1=O  apoptotic cells (NP-1 tubular epithelial cells; annexin V; concentration not given, added: hypoxia): inhibited
